Results gathered from unrelated publications.
Every numbered part comes from another study and shows a few of its results, in no order.
Sequence of UniProt O00571 (132-607, looked up): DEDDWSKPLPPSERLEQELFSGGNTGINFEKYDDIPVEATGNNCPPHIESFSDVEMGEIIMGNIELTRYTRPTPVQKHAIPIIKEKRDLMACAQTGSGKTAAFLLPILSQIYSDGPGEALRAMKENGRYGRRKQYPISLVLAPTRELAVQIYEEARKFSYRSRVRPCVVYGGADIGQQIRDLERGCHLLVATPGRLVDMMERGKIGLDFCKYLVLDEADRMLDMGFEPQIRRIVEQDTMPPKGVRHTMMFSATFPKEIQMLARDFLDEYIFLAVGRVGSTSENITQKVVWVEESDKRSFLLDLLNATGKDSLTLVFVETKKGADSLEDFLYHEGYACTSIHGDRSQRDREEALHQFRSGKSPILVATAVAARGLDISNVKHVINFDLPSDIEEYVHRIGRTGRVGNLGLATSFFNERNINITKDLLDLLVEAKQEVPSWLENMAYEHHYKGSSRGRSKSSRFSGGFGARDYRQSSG
Sequence of UniProt Q9SV15 (228-325, looked up): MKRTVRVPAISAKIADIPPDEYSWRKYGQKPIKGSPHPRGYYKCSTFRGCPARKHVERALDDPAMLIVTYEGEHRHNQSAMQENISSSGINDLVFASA

Study 1
Target: Histone acetyltransferase KAT6A, winged helix 2, GST fusion (KAT6A, Homo sapiens, UniProt Q92794, residues 85-181)
Technique: protein binding microarray
Molecule type: double-stranded DNA, one strand shown
Sample: in vitro
Concentration: not given
Notes: 8-mer, flanks averaged, mean of 2 arrays, mostly near background
Reference: not given
Reading: higher = stronger binding
Construct (chain): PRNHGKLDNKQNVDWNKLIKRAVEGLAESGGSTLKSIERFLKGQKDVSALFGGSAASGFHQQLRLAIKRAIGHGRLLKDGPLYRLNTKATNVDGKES
Sequence | E-score
ATGGTACC | -0.134
CAAAAACG | 0.0824
AATGCTGT | 0.0434
GCTGCATA | 0.174
CGAAGGTC | 0.0207
GAGACTCA | -0.0131
ACGCAGCC | 0.142
ATATCTGA | -0.0263

Study 2
Target: Ras GTPase-activating protein-binding protein 1, RRM domain (G3BP1, Homo sapiens, UniProt Q13283)
Sequence of UniProt Q13283 (whole entry, looked up): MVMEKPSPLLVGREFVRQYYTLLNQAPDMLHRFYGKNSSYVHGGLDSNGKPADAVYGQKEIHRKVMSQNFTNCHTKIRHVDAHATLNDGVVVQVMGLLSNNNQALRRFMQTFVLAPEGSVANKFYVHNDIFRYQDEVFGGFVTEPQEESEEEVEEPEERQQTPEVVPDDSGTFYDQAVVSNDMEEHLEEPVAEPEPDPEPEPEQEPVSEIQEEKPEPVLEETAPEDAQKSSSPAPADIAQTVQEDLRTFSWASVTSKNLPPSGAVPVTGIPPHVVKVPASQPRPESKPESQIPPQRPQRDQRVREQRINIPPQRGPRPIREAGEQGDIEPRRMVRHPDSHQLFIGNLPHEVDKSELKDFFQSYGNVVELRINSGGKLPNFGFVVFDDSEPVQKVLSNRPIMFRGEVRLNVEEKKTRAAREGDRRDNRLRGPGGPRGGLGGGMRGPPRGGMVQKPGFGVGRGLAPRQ
Technique: RNA Bind-n-Seq
Molecule type: RNA
Sample: in vitro
Concentration: 1 µM
Notes: whole 134-nt RNA, ends assumed
With: 150 mM KCl
Reference: input library
Reading: higher = stronger binding
All sequences stand within: GGGAGUUCUACAGUCCGACGAUC … UGGAAUUCUCGGGUGUCAAGG
Sequence | log2 enrichment
UUCCUCAAGUCCUGUGCUACACAUCGUAUGUACCGAAUCGGAGGUGGAGGAAAGUAUUAUGUUACGCCGUUCGGAUCUGCACUUCCAGCA | -0.335
AAGUCCUGUGCUACACAUCGUAUGUACCGAAUCGGGGUUUUUGGGGAGGGGUGGGGAAAGUAUUAUGUUACGCCGUUCGGAUCUGCACUU | 0.68
UGGGAGGUGGAUUUUGUUUAUUUUUUUAGCUCAUUUCCACGGGUGGGAAUUUUUUUUUAAUAUGUGUCAUGAAUAAAGUUGUUUUUGAAA | 1.87
GCAGGAAGUAAAAACAAAUGGAAAUGCUUCGGAUAGUGGCAGGGGUGGGGGUUGCUAAGGGAAGGGUGGGAUGGGAGUGGGUAAAGAGUU | 1.74
UCAAGUCCUGUGCUACACAUCGUAUGUACCGAAUCGGUUUUUUUGGUUUGGUGGAAAGUAUUAUGUUACGCCGUUCGGAUCUGCACUUCC | -0.309
AGUCCUGUGCUACACAUCGUAUGUACCGAAUCGGCCCCCCGGCCCCCCGGCCCCCCGGAAAGUAUUAUGUUACGCCGUUCGGAUCUGCAC | -0.671
AGUCCUGUGCUACACAUCGUAUGUACCGAAUCAAAUUUAAAUUUAAAUUUUUUUAAAAAAGUAUUAUGUUACGCCGUUCGGAUCUGCACU | -0.812
UGGGAGGUGGAUUUUGUUUAUUUUUUUAGCUCAUUUCCAGGGGUUGGAAUUUUUUUUUAAUAUGUGUCAUGAAUAAAGUUGUUUUUGAAA | 1.14

Study 3
Cell line: HEK-293T/ACE2
Concentration: 10 µM
Time: 16 h
Reference: vehicle
Compound | viability [%]
CC(=O)N(CC(O)CO)c1c(I)c(C(=O)NCC(O)CO)c(I)c(C(=O)NCC(O)CO)c1I (centres unmarked) | 102
C[N+]12CCC(CC1)C(OC(=O)C(O)(c1ccccc1)c1ccccc1)C2 (centres unmarked) | 100
C=CC[C@@H]1/C=C(\C)C[C@H](C)C[C@H](OC)[C@H]2O[C@@](O)(C(=O)C(=O)N3CCCC[C@H]3C(=O)O[C@H](/C(C)=C/[C@@H]3CC[C@@H](O)[C@H](OC)C3)[C@H](C)[C@@H](O)CC1=O)[C@H](C)C[C@@H]2OC | 108
Cc1cn([C@H]2C=C[C@@H](CO)O2)c(=O)[nH]c1=O | 100

Study 4
Target: Replicase polyprotein 1ab, polymerase (rep, Severe acute respiratory syndrome coronavirus 2, UniProt P0DTD1)
Effect on: enzyme activity
Mode: inhibitor
Concentration: 20 µM
SMILES | inhibition
CC(C)(C)[N+]([O-])=Cc1ccc(S(=O)(=O)O)cc1S(=O)(=O)O | -0.12%
Cc1ccc2c(c1)C1(CCN(CCc3nc(-c4ccccc4)oc3C)CC1)OC(=O)N2 | 1.18%
CC(C)(C)c1ccc(-c2nc3c(N4CCN(Cc5ccc6nccnc6c5)CC4)cccc3[nH]2)cc1 | -2.97%
Cc1nccn1CCC(C(N)=O)(c1ccccc1)c1ccccc1 | -21.1%
O=C(c1c2ccccc2cc2ccccc12)N1CCC(N2CCC[C@@H](C(=O)N3CCOCC3)C2)CC1 | 2.54%
CC(CNS(=O)(=O)C(C)C)c1ccc(-c2ccc(C#N)cc2)cc1 (centres unmarked) | -0.21%
Cc1csc(NC(=O)CSc2ccc(-c3ccccc3)nn2)n1 | 0.86%
N[C@@H](CSC(c1ccccc1)(c1ccccc1)c1ccccc1)C(=O)O | 0.74%
N[C@@H](C(=O)N[C@@H]1C(=O)N2C(C(=O)O)=C(Cl)CS[C@H]12)c1ccccc1 | 0.66%
Cc1ccc(C(=O)C(C)CN2CCCCC2)cc1 (centres unmarked) | 3.28%
CC(C(=O)O)c1ccc(CC2CCCC2=O)cc1 (centres unmarked) | 0%
c1ccc(N2CCN(Cc3nc4ccccc4[nH]3)CC2)nc1 | -3.59%
Nc1nc(-c2nn(Cc3ccccc3F)c3ncccc23)ncc1C1CC1 | -1.85%
Cc1cc(C(=O)NOCCO)c(Nc2ccc(I)cc2F)n(C)c1=O | 3.57%
O=C(O)C(F)(F)C(F)(F)C(F)(F)C(F)(F)C(F)(F)C(F)(F)C(F)(F)F | -1.37%
C[C@@H](O)[C@H]1C(=O)N2C(C(=O)O)=C(S[C@@H]3CN[C@H](C(=O)N(C)C)C3)[C@H](C)[C@H]12 | 12.5%
CC(C)=CCC[C@](C)(O[C@@H]1O[C@H](CO)[C@@H](O)[C@H](O)[C@H]1O)[C@H]1CC[C@]2(C)[C@@H]1[C@H](O)C[C@@H]1[C@@]3(C)CC[C@H](O)C(C)(C)[C@@H]3CC[C@]12C | -2.09%
CC(C)[C@@]1(NC(=O)[C@@H]2C[C@@H]3c4cccc5[nH]cc(c45)C[C@H]3N(C)C2)O[C@@]2(O)[C@@H]3CCCN3C(=O)[C@H](Cc3ccccc3)N2C1=O | 15.5%
CC(C)(O)C(Cl)(Cl)Cl | 16.6%
NCC(=O)O | -4.29%
c1ccc(CNCc2ccc(CN3CCCNCCNCCCNCC3)cc2)nc1 | 1.21%
COc1cc2c(cc1O)C(CCc1ccc(Cl)cc1)N(C)CC2 (centres unmarked) | 4.61%
CCCNC(C)C(=O)Nc1c(C)csc1C(=O)OC (centres unmarked) | -0.2%
NCCCC[C@@H]1NC(=O)[C@@H](Cc2c[nH]c3ccccc23)NC(=O)[C@H](c2ccccc2)NC(=O)[C@@H]2C[C@@H](OC(=O)NCCN)CN2C(=O)[C@H](Cc2ccccc2)NC(=O)[C@H](Cc2ccc(OCc3ccccc3)cc2)NC1=O | 15.2%
CC(C)c1c2cc(-c3ccnc(N[C@H]4CC[C@H](NC5CCOCC5)CC4)n3)ccc2nn1C | -4.12%

Study 5
Target: Replicase polyprotein 1ab, main protease (rep, Severe acute respiratory syndrome coronavirus 2, UniProt P0DTD1)
Effect on: enzyme activity
Mode: inhibitor
Concentration: 20 µM
Notes: hit confirmation, no DTT
SMILES | inhibition [%]
O=C1C=Cc2cc(Br)ccc2C1=O | 99.4
Cn1sc(=O)n(Cc2ccccc2)c1=O | 110
O=C1C2CC=CCC2C(=O)N1SC(Cl)(Cl)Cl (centres unmarked) | 100

Further values, each from its own experiment
Reading: higher = stronger binding
EIF4A1: Eukaryotic initiation factor 4A-I (EIF4A1, Homo sapiens, UniProt P60842, residues 1-406, full length assumed)
Sequence of UniProt P60842 (whole entry, looked up): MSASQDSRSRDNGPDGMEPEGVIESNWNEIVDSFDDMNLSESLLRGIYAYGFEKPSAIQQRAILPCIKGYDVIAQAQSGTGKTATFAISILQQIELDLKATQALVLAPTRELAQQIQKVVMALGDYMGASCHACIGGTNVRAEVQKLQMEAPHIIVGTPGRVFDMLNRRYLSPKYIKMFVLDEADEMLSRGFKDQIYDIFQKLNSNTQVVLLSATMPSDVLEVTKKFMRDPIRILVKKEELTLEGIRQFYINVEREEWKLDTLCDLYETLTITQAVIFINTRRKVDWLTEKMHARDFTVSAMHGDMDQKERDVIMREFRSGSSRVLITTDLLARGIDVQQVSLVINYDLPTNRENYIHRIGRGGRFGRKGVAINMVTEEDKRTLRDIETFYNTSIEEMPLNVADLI
Sequence | target | assay | test system | conditions | scale | measurement | result
GGUA | EIF4A1 | RNA Bind-n-Seq | RNA, in vitro | 15 pmol, 4-mer, random 30-nt RNA, single round, with: 3 µM RocA, 2 mM AMP-PNP | reference: mean of 4-mers | 4-mer enrichment Z-score | 1.04
AAAAAACAGGCCGATTCCGATCCCGGAAAA | Probable WRKY transcription factor 11, DNA-binding domain (WRKY11, Arabidopsis thaliana, UniProt Q9SV15, residues 228-325) | DNA-protein interaction ELISA | double-stranded DNA, one strand shown, in vitro, bacterial lysate | not given, whole dsDNA probe, crude lysate protein | reference: highest signal in screen | relative absorbance | 13.5 % of maximum
GACA | EIF4A1 | RNA Bind-n-Seq | RNA, in vitro | 90 pmol, 4-mer, random 30-nt RNA, single round, with: 3 µM DMDA-PatA, 2 mM ADP, 2 mM phosphate | reference: input library | 4-mer enrichment | 0.809 fold
CGGA | EIF4A1 | RNA Bind-n-Seq | RNA, in vitro | 15 pmol, 4-mer, random 30-nt RNA, single round, with: 3 µM RocA, 2 mM AMP-PNP | reference: mean of 4-mers | 4-mer enrichment Z-score | 0.401
CCUG | ATP-dependent RNA helicase DDX3X, helicase core (DDX3X, Homo sapiens, UniProt O00571, residues 132-607) | RNA Bind-n-Seq | RNA, in vitro | 90 pmol, 4-mer, random 30-nt RNA, single round, with: 3 µM DMDA-PatA, 2 mM ADP, 2 mM phosphate | reference: input library | 4-mer enrichment | 0.851 fold

Some of these lines once more (study 2):
Sequence | log2 enrichment
UUCCUCAAGUCCUGUGCUACACAUCGUAUGUACCGAAUCGGAGGUGGAGGAAAGUAUUAUGUUACGCCGUUCGGAUCUGCACUUCCAGCA | -0.335
AAGUCCUGUGCUACACAUCGUAUGUACCGAAUCGGGGUUUUUGGGGAGGGGUGGGGAAAGUAUUAUGUUACGCCGUUCGGAUCUGCACUU | 0.68
UGGGAGGUGGAUUUUGUUUAUUUUUUUAGCUCAUUUCCACGGGUGGGAAUUUUUUUUUAAUAUGUGUCAUGAAUAAAGUUGUUUUUGAAA | 1.87
GCAGGAAGUAAAAACAAAUGGAAAUGCUUCGGAUAGUGGCAGGGGUGGGGGUUGCUAAGGGAAGGGUGGGAUGGGAGUGGGUAAAGAGUU | 1.74
UCAAGUCCUGUGCUACACAUCGUAUGUACCGAAUCGGUUUUUUUGGUUUGGUGGAAAGUAUUAUGUUACGCCGUUCGGAUCUGCACUUCC | -0.309
AGUCCUGUGCUACACAUCGUAUGUACCGAAUCGGCCCCCCGGCCCCCCGGCCCCCCGGAAAGUAUUAUGUUACGCCGUUCGGAUCUGCAC | -0.671
AGUCCUGUGCUACACAUCGUAUGUACCGAAUCAAAUUUAAAUUUAAAUUUUUUUAAAAAAGUAUUAUGUUACGCCGUUCGGAUCUGCACU | -0.812
UGGGAGGUGGAUUUUGUUUAUUUUUUUAGCUCAUUUCCAGGGGUUGGAAUUUUUUUUUAAUAUGUGUCAUGAAUAAAGUUGUUUUUGAAA | 1.14
